Results of several laboratories.
Each numbered part is a random draw from the data of one study; scales do not carry over between parts.

Sample 1
Target: Interferon regulatory factor 3, full length, phosphomimetic (IRF3, Homo sapiens, UniProt Q14653, residues 1-427, S386D/S396D/S398D/S402D/T404D/S405D)
Technique: protein-binding microarray
Molecule type: double-stranded DNA, one strand shown
Matrix: in vitro
Concentration: 2540 nM top
Notes: 60-bp whole probe
Added: salmon DNA 0.4 mg/ml
Baseline: random background probes
Direction: higher = stronger binding
Shared flanks, not repeated: GCCTAGCAC … GTCTTGATTCGCTTGACGCTGCTG
Construct (chain): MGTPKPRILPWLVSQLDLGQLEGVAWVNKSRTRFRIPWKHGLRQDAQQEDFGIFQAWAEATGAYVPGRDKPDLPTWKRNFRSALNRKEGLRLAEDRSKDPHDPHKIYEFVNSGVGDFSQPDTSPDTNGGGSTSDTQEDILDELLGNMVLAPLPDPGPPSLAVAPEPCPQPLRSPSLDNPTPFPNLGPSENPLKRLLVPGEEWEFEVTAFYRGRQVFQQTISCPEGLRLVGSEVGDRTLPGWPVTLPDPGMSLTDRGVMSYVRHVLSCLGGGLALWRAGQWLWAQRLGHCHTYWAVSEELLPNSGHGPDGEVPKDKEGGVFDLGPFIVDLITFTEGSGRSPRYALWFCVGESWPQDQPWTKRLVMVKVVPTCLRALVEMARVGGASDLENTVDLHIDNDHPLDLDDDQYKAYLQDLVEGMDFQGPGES
Under “fitted relative affinity”, `TCACTTATGATATATATAACTGTGCTA` is recorded as 0.624 z-score.
For `GAAGATTTCGGGACTGGAGACGTGCTA`, “fitted relative affinity” read 1.13 z-score.
For `GACGGTGTCGACTATCGGGACGTGCTA`, “fitted relative affinity” read 0.749 z-score.
`GACGATATCAATTTCGAGACGTGCTAG` — result for “fitted relative affinity”: 1.4 z-score.
Under “fitted relative affinity”, `TCATATATCTGTGTTATACTGTGCTAG` is recorded as 0.503 z-score.
`GACGGTCTCCTGCTGCTGACGTGCTAG` — result for “fitted relative affinity”: 0.174 z-score.
`TCATGCATCTATCTTAAACTGTGCTAG` — result for “fitted relative affinity”: 0.194 z-score.
`TTAGGTTTCGACTATGGGTTAGTGCTA`: “fitted relative affinity” 2.24 z-score.
`TTAGGACTGCTTATCCTTGAGTGCTAG`: “fitted relative affinity” -0.359 z-score.
`TCAATGTTCCCTATATAACTGTGCTAG`: “fitted relative affinity” 1.59 z-score.
`TCATCACTCAATCTCAAACTGTGCTAG`: “fitted relative affinity” 0.323 z-score.

Sample 2
Target: Ras GTPase-activating protein-binding protein 1, RRM domain (G3BP1, Homo sapiens, UniProt Q13283)
Sequence of UniProt Q13283 (whole entry, looked up): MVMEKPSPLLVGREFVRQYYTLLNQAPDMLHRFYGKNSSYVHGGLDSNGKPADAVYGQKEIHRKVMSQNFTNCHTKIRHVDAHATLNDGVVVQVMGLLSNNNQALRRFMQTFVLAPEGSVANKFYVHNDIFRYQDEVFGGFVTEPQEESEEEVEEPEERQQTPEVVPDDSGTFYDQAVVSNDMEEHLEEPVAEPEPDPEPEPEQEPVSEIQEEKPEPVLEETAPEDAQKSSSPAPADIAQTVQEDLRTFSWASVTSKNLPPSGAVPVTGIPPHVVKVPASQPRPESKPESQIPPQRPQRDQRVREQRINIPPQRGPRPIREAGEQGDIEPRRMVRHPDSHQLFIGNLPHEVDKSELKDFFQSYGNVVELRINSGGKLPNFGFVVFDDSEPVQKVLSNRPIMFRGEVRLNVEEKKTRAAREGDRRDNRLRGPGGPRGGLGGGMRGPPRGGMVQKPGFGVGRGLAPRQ
Technique: RNA Bind-n-Seq
Molecule type: RNA
Matrix: in vitro
Concentration: 1 µM
Notes: whole 134-nt RNA, ends assumed
Added: 150 mM KCl
Baseline: input library
Direction: higher = stronger binding
`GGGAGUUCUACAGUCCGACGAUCCAAGUCCUGUGCUACACAUCGUAUGUACCGAAUCGGUGGAAAAAAAGGAAAAAGGAAAGUAUUAUGUUACGCCGUUCGGAUCUGCACUUCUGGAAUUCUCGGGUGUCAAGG` gave a log2 enrichment of -0.023.
For `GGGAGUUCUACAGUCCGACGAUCGCAGGAAGUAAAAACAAAUGGAAAUGCUAAAGAUAGUGGCAGGGGUGGGGGUUGCUAAGGAAAGGGUGGGAUGGGAGUGGGUAAAGAGUUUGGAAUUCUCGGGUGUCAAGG`, the log2 enrichment was 1.44.
With `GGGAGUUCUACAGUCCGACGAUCUGGCCCGCCGUCCUGAGGAAGCUGAGGUUCACUGCGGUGCCCAAGAACCACCAGGCGGUCCGGAACCCGUGAGCGGCUGCCAGGGGCUCUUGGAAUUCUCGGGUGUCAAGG` the log2 enrichment was -0.498.
For `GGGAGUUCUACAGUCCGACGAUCCUCAAGUCCUGUGCUACACAUCGUAUGUACCGAAUCGGGUUGGUUGGGGUUGGAAAGUAUUAUGUUACGCCGUUCGGAUCUGCACUUCCAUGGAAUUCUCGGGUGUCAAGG`, the log2 enrichment was -0.206.
The log2 enrichment of `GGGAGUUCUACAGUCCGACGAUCCAGUUUAAGAGGGGUUUCAUGCAAGGGCAUGUAAAUAGACAAGAAAAAGAAGAAAAAGAAGCAAUAUAUAAAGAACGUUGGCCAGAUUAUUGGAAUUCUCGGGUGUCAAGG` is reported as 0.162.
With `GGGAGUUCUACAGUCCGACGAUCCACAGACAACACGCACCCACACAGACACAGAGGGAAGGGGUUGGGAUAAAGACAGGGUGCACAGCAGGGCGGGGUAGGACCCCAGCCCCUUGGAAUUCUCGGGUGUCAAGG` the log2 enrichment was 0.0605.
For `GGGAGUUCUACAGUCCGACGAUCCCUCAAGUCCUGUGCUACACAUCGUAUGUACCGAAUCGGAGGGAGGGGAGGGGAAAGUAUUAUGUUACGCCGUUCGGAUCUGCACUUCCAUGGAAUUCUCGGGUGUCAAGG`, the log2 enrichment was -0.0259.
`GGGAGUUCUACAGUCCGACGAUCCACAGACAACACGCACCCACACAGACACAGAGGGAAGGGGUUGGGAUGGGGACAGGGUGCACAGCAGGGCGGGGUAGGACCCCAGCCGCUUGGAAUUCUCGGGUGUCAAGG` gave a log2 enrichment of -0.24.
With `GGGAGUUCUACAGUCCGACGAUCCACAGACACCACGCACCCACACAGACACAGAGGGAAGGGGUUGGGAUGGGGACAGGGUGCACAGCAGGGCGGGGUAGGACCCCAGCCCCUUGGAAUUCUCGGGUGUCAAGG` the log2 enrichment was -0.118.

Sample 3
Target: Histone acetyltransferase KAT6A, both winged helices, GST fusion (KAT6A, Homo sapiens, UniProt Q92794, residues 1-181)
Technique: protein binding microarray
Molecule type: double-stranded DNA, one strand shown
Matrix: in vitro
Concentration: not given
Notes: 8-mer, flanks averaged, mean of 2 arrays, mostly near background
Baseline: not given
Direction: higher = stronger binding
Residues (chain): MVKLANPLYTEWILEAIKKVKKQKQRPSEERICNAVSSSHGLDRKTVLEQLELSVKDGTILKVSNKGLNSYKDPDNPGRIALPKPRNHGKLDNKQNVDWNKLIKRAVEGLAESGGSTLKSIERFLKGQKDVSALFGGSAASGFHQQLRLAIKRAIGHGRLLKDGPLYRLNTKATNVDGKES
With `CTTAAGCA` the E-score was 0.0355.
With `CTCTCTTC` the E-score was -0.102.
`ATCTTTTC` gave an E-score of -0.0878.
`CCACTGGG` gave an E-score of -0.254.
With `AACAGAAG` the E-score was -0.156.
For `AACGAATC`, the E-score was -0.0462.
`GTAGTCAC` has an E-score of -0.0611.
`TCGAAAGA` has an E-score of -0.134.
`GCCGGATA` gave an E-score of 0.172.
With `CTGAGCGC` the E-score was 0.222.
`AGAATAAA` gave an E-score of -0.18.
The E-score of `CCTTCAGA` is reported as -0.058.
`GCCATGAC` gave an E-score of 0.00649.
The E-score of `AATTGTCA` is reported as -0.111.
With `GACTCGCA` the E-score was 0.0534.
`AGCCTTGC` gave an E-score of -0.0367.
`CAATCTTC` has an E-score of -0.159.
`GAGCTAAC` gave an E-score of -0.0629.
With `CCAATTTA` the E-score was -0.152.
`GCCCCACC` gave an E-score of -0.0778.
For `GGTAATTA`, the E-score was 0.00694.
For `GAAAAGGA`, the E-score was -0.195.
`AGATGACT` has an E-score of -0.0485.
`ATAGCCGG` has an E-score of 0.273.
`ACAGGTAA` has an E-score of -0.0635.

Sample 4
Target: GDNF-inducible zinc finger protein 1, full length (GZF1, Homo sapiens, UniProt Q9H116, residues 1-711)
Sequence of UniProt Q9H116 (whole entry, looked up): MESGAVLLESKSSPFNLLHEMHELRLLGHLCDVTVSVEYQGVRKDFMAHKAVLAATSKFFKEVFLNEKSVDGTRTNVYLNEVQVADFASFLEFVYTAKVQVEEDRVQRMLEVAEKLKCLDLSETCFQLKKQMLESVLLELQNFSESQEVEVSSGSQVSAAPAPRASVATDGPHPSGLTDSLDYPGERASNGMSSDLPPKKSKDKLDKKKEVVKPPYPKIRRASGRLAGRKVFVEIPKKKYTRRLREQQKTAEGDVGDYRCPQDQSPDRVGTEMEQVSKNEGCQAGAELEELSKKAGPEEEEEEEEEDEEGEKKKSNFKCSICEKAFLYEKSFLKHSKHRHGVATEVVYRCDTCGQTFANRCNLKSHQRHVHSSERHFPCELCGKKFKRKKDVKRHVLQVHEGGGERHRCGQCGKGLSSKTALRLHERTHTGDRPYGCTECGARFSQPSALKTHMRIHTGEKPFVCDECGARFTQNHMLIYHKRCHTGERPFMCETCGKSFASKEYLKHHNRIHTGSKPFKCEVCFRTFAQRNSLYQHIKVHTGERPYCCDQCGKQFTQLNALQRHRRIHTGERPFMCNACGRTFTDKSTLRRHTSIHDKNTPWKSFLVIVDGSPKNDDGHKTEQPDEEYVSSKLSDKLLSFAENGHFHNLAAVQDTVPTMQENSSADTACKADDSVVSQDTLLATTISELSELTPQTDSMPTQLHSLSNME
Technique: protein-binding microarray
Molecule type: hairpin DNA
Matrix: in vitro
Concentration: not given
Notes: whole hairpin DNA, median over replicate spots
Baseline: not given
Direction: higher = stronger binding
For `GAGGCCATTACGGTTATGCCTCCTGGCATAACCGTAATGGCCTCACACTC`, the median fluorescence was 443 a.u.
With `GAGGCCATTACGGAAATGCCTCCTGGCATTTCCGTAATGGCCTCACACTC` the median fluorescence was 456 a.u.
For `GAGGCCATTTCGGTAATGCCTCCTGGCATTACCGAAATGGCCTCACACTC`, the median fluorescence was 468 a.u.
`GAGGCCATTACGCTAATGCCTCCTGGCATTAGCGTAATGGCCTCACACTC` gave a median fluorescence of 415 a.u.
The median fluorescence of `GAGGCCATCGCGGTAATGCCTCCTGGCATTACCGCGATGGCCTCACACTC (5mC at 9)` is reported as 713 a.u.
For `GAGGCCATTACGGTAACGCCTCCTGGCGTTACCGTAATGGCCTCACACTC`, the median fluorescence was 690 a.u.
`GAGGCCATTATGGTAATGCCTCCTGGCATTACCATAATGGCCTCACACTC` has a median fluorescence of 373 a.u.
For `GAGGCCATTACCGTAATGCCTCCTGGCATTACGGTAATGGCCTCACACTC (5mC at 32)`, the median fluorescence was 715 a.u.
The median fluorescence of `GAGGCCATTACGGTACGGCCTCCTGGCCGTACCGTAATGGCCTCACACTC` is reported as 642 a.u.
`GAGGCCATTGCGGTAATGCCTCCTGGCATTACCGCAATGGCCTCACACTC` has a median fluorescence of 627 a.u.
For `GAGGCCATTCGGGTAATGCCTCCTGGCATTACCCGAATGGCCTCACACTC`, the median fluorescence was 498 a.u.
`GAGGCCATTACGGTAAGGCCTCCTGGCCTTACCGTAATGGCCTCACACTC (5mC at 28)` has a median fluorescence of 579 a.u.
`GAGGCCATCGCGGTAATGCCTCCTGGCATTACCGCGATGGCCTCACACTC (5mC at 9 35)` gave a median fluorescence of 692 a.u.
For `GAGGCCATTACGGTAGTGCCTCCTGGCACTACCGTAATGGCCTCACACTC (5mC at 29)`, the median fluorescence was 735 a.u.
With `GAGGCCATTACGGCGATGCCTCCTGGCATCGCCGTAATGGCCTCACACTC (5mC at 14)` the median fluorescence was 555 a.u.
`GAGGCCCTTACGGTAATGCCTCCTGGCATTACCGTAAGGGCCTCACACTC (5mC at 7)` has a median fluorescence of 616 a.u.
`GAGGCCAGTACGGTAATGCCTCCTGGCATTACCGTACTGGCCTCACACTC (5mC at 37)` gave a median fluorescence of 752 a.u.
The median fluorescence of `GAGGCCCTTACGGTAATGCCTCCTGGCATTACCGTAAGGGCCTCACACTC` is reported as 607 a.u.
`GAGGCCATTAAGGTAATGCCTCCTGGCATTACCTTAATGGCCTCACACTC` gave a median fluorescence of 332 a.u.
With `GAGGCCATTACGGTAATGCCTCCTGGCATTACCGTAATGGCCTCACACTC (5mC at 32)` the median fluorescence was 810 a.u.

Excerpt of the above (sample 1):
Under “fitted relative affinity”, `TCACTTATGATATATATAACTGTGCTA` is recorded as 0.624 z-score.
For `GAAGATTTCGGGACTGGAGACGTGCTA`, “fitted relative affinity” read 1.13 z-score.
For `GACGGTGTCGACTATCGGGACGTGCTA`, “fitted relative affinity” read 0.749 z-score.
`GACGATATCAATTTCGAGACGTGCTAG` — result for “fitted relative affinity”: 1.4 z-score.
Under “fitted relative affinity”, `TCATATATCTGTGTTATACTGTGCTAG` is recorded as 0.503 z-score.
`GACGGTCTCCTGCTGCTGACGTGCTAG` — result for “fitted relative affinity”: 0.174 z-score.
`TCATGCATCTATCTTAAACTGTGCTAG` — result for “fitted relative affinity”: 0.194 z-score.
`TTAGGTTTCGACTATGGGTTAGTGCTA`: “fitted relative affinity” 2.24 z-score.
`TTAGGACTGCTTATCCTTGAGTGCTAG`: “fitted relative affinity” -0.359 z-score.
`TCAATGTTCCCTATATAACTGTGCTAG`: “fitted relative affinity” 1.59 z-score.
